Measurements pooled from the literature.
Protocols differ between the studies behind these lines.
ALK: ALK tyrosine kinase receptor (ALK, Homo sapiens, UniProt Q9UM73)

| Structure (SMILES) | target | test | conditions | how to read | measurement | result |
| --- | --- | --- | --- | --- | --- | --- |
| COc1cc(F)ccc1-c1ncnc(Nc2cccc(C[S@](C)(=N)=O)c2)n1 | ALK | kinase activity | 10 µM, with: 10 µM ATP | – | remaining activity | 91% |
| [2H]c1cc(C)c(NC(=O)c2cnc(Nc3cc(N4CCCCC4)nc(C)n3)s2)c(Cl)c1 | ALK | – | 0.01 µM | – | inhibition | < 30% |
| Cc1cc(Nc2cc(N3CCN(C)CC3)nc(Sc3ccc(NC(=O)C4CC4)cc3)n2)[nH]n1 | ALK | kinase activity, KinaseProfiler | 0.03 µM, species human | relative to: control | remaining activity | 92% |
| CCOc1cc(N2CCN(C)CC2)ccc1Nc1nc(N)n(C(=O)NCc2ccccc2S(=O)(=O)C(C)C)n1 | ALK | enzyme activity | 10 µM | relative to: control | remaining activity | 11% |
| CC/C(=N\NC(=O)NCc1cccc(O)c1)c1ccc(O)c(C)c1O | ALK tyrosine kinase receptor, EML4-ALK fusion (ALK, Homo sapiens, UniProt Q9UM73) | kinase activity | 0.1 µM | – | inhibition | -4.5% |
| CC(C)Oc1cc(N2CCN(C)CC2)ccc1Nc1nc(N)n(C(=O)NCc2ccccc2S(=O)(=O)C(C)C)n1 | ALK | enzyme activity | 10 µM | relative to: control | remaining activity | 8.2% |
| O=C(NC1CCC1)c1ccc2nc(-c3cccc(NS(=O)(=O)NCCN4CCCCC4)c3)cn2c1 | ALK | enzyme activity | 10 µM | – | remaining activity | 66% |
| c1cnc2ccc(Nc3nc(NC4CC4)c4nc[nH]c4n3)cc2c1 | ALK | kinase activity, inhibitor, SelectScreen kinase profiling | 1 µM | relative to: control | remaining activity | 78% |
| COc1cc(N2CCN(C)CC2)ccc1Nc1nc(N)n(C(=S)NCc2c(Cl)cccc2Cl)n1 | ALK | enzyme activity | 10 µM | relative to: control | remaining activity | 0.1% |

A few entries again:
| Structure (SMILES) | target | test | conditions | how to read | measurement | result |
| --- | --- | --- | --- | --- | --- | --- |
| COc1cc(N2CCN(C)CC2)ccc1Nc1nc(N)n(C(=S)NCc2c(Cl)cccc2Cl)n1 | ALK | enzyme activity | 10 µM | relative to: control | remaining activity | 0.1% |
